Measured values gathered from unrelated publications.
Parts stem from different laboratories: compare values within a part only. Positions count from the first letter of the parent shown.

Study 1 — technique: protein binding microarray; form: double-stranded DNA, one strand shown; matrix: in vitro; tested at: not given; baseline: not given; reading: higher = stronger binding
Target: Histone acetyltransferase KAT6A, winged helix 2, GST fusion (KAT6A, Homo sapiens, UniProt Q92794, residues 85-181)
Setting: 8-mer, flanks averaged, mean of 2 arrays, mostly near background
Target sequence (chain): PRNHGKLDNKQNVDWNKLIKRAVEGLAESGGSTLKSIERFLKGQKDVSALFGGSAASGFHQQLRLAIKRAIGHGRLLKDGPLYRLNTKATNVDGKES
| Oligonucleotide | E-score |
| --- | --- |
| AGTAACTA | 0.04 |
| AGGGGTTC | -0.14 |
| AATCTGAA | -0.0541 |
| CAAACGTA | -0.159 |
| CCGTTAGA | 0.0217 |
| GAACTGAC | 0.0139 |
| CTCTTTTC | -0.155 |
| AAAAAGAG | 0.103 |
| GCCTGTTA | -0.148 |
| ACCGGGGG | 0.0726 |
| CTCATGAG | 0.0848 |
| ATAGTCAG | -0.0208 |
| GAAGCCCC | -0.139 |
| CGGATCGC | 0.06 |
| ACCTGTAG | -0.0756 |
| ACGCAGAA | 0.157 |
| AGTACCAA | 0.0768 |
| ATTTATGG | 0.0152 |
| CGCGAACC | 0.0915 |
| GCCACCTA | -0.144 |
| GAACCCCC | -0.182 |
| GGGCGTGA | 0.187 |
| CTTGGGAC | 0.0466 |

Study 2 — technique: RNA Bind-n-Seq; form: RNA; matrix: in vitro; tested at: 365 nM; baseline: no-protein control; reading: higher = stronger binding
Target: RNA binding protein fox-1 homolog 2, RRM domain, GST-SBP tag (RBFOX2, Homo sapiens, UniProt O43251-10, residues 100-194)
Setting: natural RNA segment, single round, ends assumed
Residues (chain): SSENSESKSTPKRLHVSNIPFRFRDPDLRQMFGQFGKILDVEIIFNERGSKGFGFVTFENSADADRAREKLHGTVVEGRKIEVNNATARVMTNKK
| Oligonucleotide | RBNS enrichment (R) |
| --- | --- |
| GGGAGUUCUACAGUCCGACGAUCCUGUAGUGAAUACUGUGUCACCAAUUUUGAAAUCAAUUUAAUGUUUAAUGCAAAUCCAUUACAUGGUGCUAUUAUAGGCUGACAAAAUGAUUUACACAAAUGUGACAACUUGGAAUUCUCGGGUGCCAA | 0.256 |
| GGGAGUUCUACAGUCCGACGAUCCUAAUGUGAUGGAUGUGUCUGGUAAUGCGAAACAACUUAUUUCCGUCUACUGCUCAGCACUUUGGUAAGAGCCUGUGGCAGUCUGUAAGAGUGGGGUGAGGAAGAAGCCAUGGAAUUCUCGGGUGCCAA | 0.84 |
| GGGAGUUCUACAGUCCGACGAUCGGCGCCUUAGAGAUGGGCGAGUGUCUGAGAAGACCUGCUCGGAGCACACUGCACUCUUUGAUCCUCCCUGGUGUCUGGUGCCUUCUAUCUUAAAAAACAUGACAAGUCAUUGGAAUUCUCGGGUGCCAA | 0.391 |
| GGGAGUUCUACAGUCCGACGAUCGCUAUCCUUGGCUACACAGUGAAUUUGAGACCAGCUUGGGCUCAUGAGACCCUGUCUCAAGGAAAAAUCAAAAGUUCUUUACAGAUGUGUGCGUGCGGGCGUCAGUUUCCUGGAAUUCUCGGGUGCCAA | 0.253 |
| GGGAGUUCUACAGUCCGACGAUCGGCUGGAAACCCAGGUGUUGUGCUGGCACUGCCCAGGCUGAGACUCUUCAAGUCCCGCUGACGUCUGAGCUUUGAUGCUUAAGAGGGGUGAGGCAGGGAGCGGACUUCCUUGGAAUUCUCGGGUGCCAA | 0.618 |
| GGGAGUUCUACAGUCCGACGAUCAGGAAACACCACAGGCUGAACGGGGGAGGAAUGCACAUGCCACGCUGGGUGUCCCGGGUCGCGGGGAGGCAGCUCAGCUCUUAGGAGCAAGUUGUGGGGGCUUUUCAAGAUGGAAUUCUCGGGUGCCAA | 5.23 |
| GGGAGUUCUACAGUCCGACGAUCCAUAGACCUUUGGGUCUGCCUGGACUGUAUGUGGAUGUGUGCGUGUGUUGUGACACGGGACAACACAUGCCUCUGCAAGUGUGUGUGCCGUGGAUAGCCCCUUGGCUGCUUGGAAUUCUCGGGUGCCAA | 2.51 |
| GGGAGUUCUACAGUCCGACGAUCCUACAGAACUUAAAGUGAGGGAACCAUUUCCUCUCACAGACAAAGAGGCCUGGGAUAUUAGGACUUUGGGGUUUGAGAGCAUCAUGGGGCAGACAGAUGGUGGAUGGUCUUGGAAUUCUCGGGUGCCAA | 0.671 |
| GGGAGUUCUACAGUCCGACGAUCUUGGGCCACACACCUCUUCUGGGCCUUACUUUGCUCUGCUGUAAGGUGUGGGCAUUUAAGAGGUACCAGAGGGAAAGGAGCCUCCGAAGGACUCGCAGGGGCAGUCGCAGUGGAAUUCUCGGGUGCCAA | 0.283 |
| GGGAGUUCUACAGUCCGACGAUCAAAAUUUCAAGGGGUAUUAUUUAAAUGAUGAUUAUCUGGCUGAAUUAUGUGUGAGCUAGAAUCUAGGGUAGCUGUCCACUUCUUUUUCUGUUGUCCUGACAGUAAAGCAAUGGAAUUCUCGGGUGCCAA | 0.663 |
| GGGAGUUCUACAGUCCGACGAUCGGGAUAAUCCCUGAAGAGUUGGCAGUGUGAGUGCAACUCAUUUAUCUUCUGUGAGGUGGGAUUUUUGUGUUCCUCACACCCAUGUAAUUAUUCUUAGAAUUGAGAUUGCUUGGAAUUCUCGGGUGCCAA | 0.571 |
| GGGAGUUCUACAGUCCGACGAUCCUCUGAUCGGGGAGGCAUCUGAUGGUGGCACCAUGGAGAACCUCAGCCGGAGACUCAAGGUCACUGGAGACCUGUUUGACAUCAUGUCGGGCCAGACCGAUGUGGAUCACUGGAAUUCUCGGGUGCCAA | 0.609 |

Study 3 — technique: DHFR PCA, deep sequencing; matrix: yeast; with: (+)-ABA 0.11 µM; baseline: wild-type fitted maximum; reading: higher = stronger binding
Target: ABI1, truncated, D143A, DHFR fusion (Arabidopsis thaliana)
Setting: methotrexate growth selection, single substitutions
Starting sequence: PYL1, truncated, DHFR fusion (Arabidopsis thaliana); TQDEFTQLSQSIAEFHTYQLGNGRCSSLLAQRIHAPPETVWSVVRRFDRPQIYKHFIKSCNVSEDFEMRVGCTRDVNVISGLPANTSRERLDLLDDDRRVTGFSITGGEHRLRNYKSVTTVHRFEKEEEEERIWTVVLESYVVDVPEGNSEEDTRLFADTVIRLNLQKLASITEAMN; partner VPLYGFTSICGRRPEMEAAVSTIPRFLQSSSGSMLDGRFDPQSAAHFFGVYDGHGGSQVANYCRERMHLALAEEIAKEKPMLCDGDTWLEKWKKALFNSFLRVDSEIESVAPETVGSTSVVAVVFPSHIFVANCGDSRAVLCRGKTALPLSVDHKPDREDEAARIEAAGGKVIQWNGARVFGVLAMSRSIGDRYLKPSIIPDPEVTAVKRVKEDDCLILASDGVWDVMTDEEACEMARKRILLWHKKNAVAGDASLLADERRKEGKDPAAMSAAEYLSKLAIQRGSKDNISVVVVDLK
| Substitution | relative binding score [%] |
| --- | --- |
| P50N | 6.45 |
| V44Q | -2.37 |
| F124W | 41.5 |
| T173F | -6.26 |
| T160Q | -4.68 |
| D65K | 20.4 |
| V145T | 2.05 |
| R90D | 0.237 |
| T106N | -5.95 |
| V137M | -7.51 |
| V76H | -2.12 |
| V137L | -7.07 |
| E4T | 19.9 |
| W41V | -7.34 |
| V43H | 1.22 |
| R155H | -3.33 |
| R49M | 23.3 |

Study 4 — target: CCNF, cyclin fold, Cln2 fusion (human); technique: yeast growth competition, sequencing; matrix: yeast; setting: strong parent motif; baseline: not given; reading: higher = stronger binding
Starting sequence: E2F1 docking peptide (human); PPVKRRLDLETDH; partner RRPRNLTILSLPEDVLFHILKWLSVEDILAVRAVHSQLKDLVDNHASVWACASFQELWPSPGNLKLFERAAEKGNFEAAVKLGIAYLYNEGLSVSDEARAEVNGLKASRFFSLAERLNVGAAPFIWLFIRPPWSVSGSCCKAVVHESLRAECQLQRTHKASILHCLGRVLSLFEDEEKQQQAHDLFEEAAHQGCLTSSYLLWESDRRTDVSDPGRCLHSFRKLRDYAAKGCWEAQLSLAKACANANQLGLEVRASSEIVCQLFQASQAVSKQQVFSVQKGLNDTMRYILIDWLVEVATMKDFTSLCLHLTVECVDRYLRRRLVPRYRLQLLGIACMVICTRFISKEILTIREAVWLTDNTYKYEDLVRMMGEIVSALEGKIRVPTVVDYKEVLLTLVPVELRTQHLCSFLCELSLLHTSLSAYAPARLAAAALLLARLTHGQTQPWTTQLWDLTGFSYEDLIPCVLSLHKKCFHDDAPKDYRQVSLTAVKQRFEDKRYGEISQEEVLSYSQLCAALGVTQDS
| Substitution | normalised enrichment score |
| --- | --- |
| R6H | 3.43 |
| P1G | 4.81 |
| R6Q | 3.94 |
| D12Q | 7.03 |
| D8I | 7.91 |
| V3Q | 2.51 |
| R5N | 0.558 |
| D12N | 6.63 |
| E10H | 6.26 |
| P1E | 4.63 |
| E10S | 5.51 |
| T11M | 6.98 |
| V3S | 3.75 |
| P1C | 6.89 |
| L7F | -0.211 |
| T11V | 6.46 |
| K4F | 3.11 |
| K4Y | 3.23 |
| E10V | 6.01 |
| K4A | 6.41 |
| D8R | 7.38 |
| H13N | 6.12 |
| K4G | 3.14 |
| R5H | 0.458 |
| D12I | 6.3 |

Study 5 — technique: universal PBM; form: double-stranded DNA, one strand shown; matrix: in vitro; tested at: 600 nM; reading: higher = stronger binding
Target: Sal-like protein 4, full length isoform A (SALL4, Homo sapiens, UniProt Q9UJQ4, residues 1-1053)
Chain of UniProt Q9UJQ4 (whole entry, looked up): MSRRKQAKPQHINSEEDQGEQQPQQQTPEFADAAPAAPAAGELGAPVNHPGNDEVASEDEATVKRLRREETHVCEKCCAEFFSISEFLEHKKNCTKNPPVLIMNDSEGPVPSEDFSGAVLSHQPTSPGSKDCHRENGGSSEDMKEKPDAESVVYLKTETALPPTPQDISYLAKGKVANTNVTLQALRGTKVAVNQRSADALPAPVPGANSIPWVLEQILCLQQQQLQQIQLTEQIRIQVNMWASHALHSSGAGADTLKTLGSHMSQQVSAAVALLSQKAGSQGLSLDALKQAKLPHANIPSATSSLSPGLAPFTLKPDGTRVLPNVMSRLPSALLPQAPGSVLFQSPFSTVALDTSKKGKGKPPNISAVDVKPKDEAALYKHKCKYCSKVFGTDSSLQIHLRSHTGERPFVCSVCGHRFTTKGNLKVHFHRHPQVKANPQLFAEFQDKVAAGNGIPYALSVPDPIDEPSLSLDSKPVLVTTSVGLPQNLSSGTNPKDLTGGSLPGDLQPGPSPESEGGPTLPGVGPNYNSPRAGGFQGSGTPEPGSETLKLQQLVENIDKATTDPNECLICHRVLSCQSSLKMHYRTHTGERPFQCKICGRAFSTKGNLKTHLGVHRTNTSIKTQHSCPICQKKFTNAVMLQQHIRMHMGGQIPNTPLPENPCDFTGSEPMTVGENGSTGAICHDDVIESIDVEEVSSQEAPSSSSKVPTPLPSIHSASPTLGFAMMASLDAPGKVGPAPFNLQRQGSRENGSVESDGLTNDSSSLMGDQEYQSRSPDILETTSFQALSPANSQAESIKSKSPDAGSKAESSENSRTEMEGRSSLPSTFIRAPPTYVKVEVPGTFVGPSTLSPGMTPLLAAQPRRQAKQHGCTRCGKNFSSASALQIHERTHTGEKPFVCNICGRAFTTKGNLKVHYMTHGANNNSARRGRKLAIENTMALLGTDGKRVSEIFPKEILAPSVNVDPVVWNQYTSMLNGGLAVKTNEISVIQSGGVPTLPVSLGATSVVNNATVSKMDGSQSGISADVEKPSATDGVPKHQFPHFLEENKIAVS
Setting: 8-mer, flanks averaged, mean of replicates
| Oligonucleotide | E-score |
| --- | --- |
| GGAATTGA | 0.166 |
| GCTCGAGC | -0.0496 |
| AACCGGGA | -0.0408 |
| CTATGTCC | -0.0635 |
| AAGACACT | -0.00378 |
| CCGTCGGA | -0.233 |
| ACGCAAGG | -0.16 |
| AACTCTGA | 0.0343 |
| ACCCCGAG | -0.22 |
| CGGATGAA | 0.101 |
| GCGGGGAC | -0.231 |
| AGCGCATC | -0.143 |
| ACGCTTTC | -0.0836 |
| GGAGGTAC | -0.272 |
| GTCCGCAA | -0.121 |
| CGAATGGA | -0.128 |
| AATCTTGC | 0.216 |

Repeated from above (study 5):
| Oligonucleotide | E-score |
| --- | --- |
| GCTCGAGC | -0.0496 |
| ACGCTTTC | -0.0836 |
| ACCCCGAG | -0.22 |
| AACTCTGA | 0.0343 |
| CGAATGGA | -0.128 |
| AACCGGGA | -0.0408 |
| CCGTCGGA | -0.233 |
| AGCGCATC | -0.143 |
| GGAATTGA | 0.166 |
| ACGCAAGG | -0.16 |
| AAGACACT | -0.00378 |
| CTATGTCC | -0.0635 |
| GCGGGGAC | -0.231 |
